Measured values pooled from the literature.
Lines come from different studies, so protocols differ. Numbers after ± are the reported error.
Organism: Plasmodium falciparum

Structure (SMILES)	assay	system	conditions	IC50
CC1C=CC=CC(C)C2C=CC3CC(C)(O)C(O)C(C)C3C2C(=O)C(Cl)(Cl)C(=O)C(C)C(=O)O1 (stereo not drawn)	parasite growth, ELISA	DD2	drug-resistant strain, blood stage	> 2170 nM
COc1ccc2nc3cc(Cl)ccc3c(NCCNC(C)=C3C(=O)C=C4Oc5c(C(C)=O)c(O)c(C)c(O)c5C4(C)C3=O)c2c1 (stereo not drawn)	parasite growth, [3H]hypoxanthine incorporation	K1	erythrocytic stages	48 nM
CC1C=CC=CC(C)C2C=CC3CC(C)(O)C(Cl)C(C)C3C2C(=O)C(Cl)(Cl)C(=O)C(C)C(=O)O1 (stereo not drawn)	parasite growth, ELISA	DD2	drug-resistant strain, blood stage	43 nM
CC(=O)c1c(O)c(C)c(O)c2c1OC1=CC(=O)C(=C(C)NCCCC(=O)OC3OC4OC5(C)CCC6C(C)CCC(C3C)C46OO5)C(=O)C12C (stereo not drawn)	parasite growth, [3H]hypoxanthine incorporation	K1	erythrocytic stages	1.4 nM
Cc1ccc(S(=O)(=O)n2cc3c4c2C(=O)C(N)=CC4=NCC3)cc1	parasite growth, SYBR Green	3D7	blood stage	845 nM
COc1cc2c3cc1Oc1cc(ccc1O)CC1c4c(cc(OC)c(O)c4Oc4ccc(cc4)CC3N(C)CC2)CCN1C (stereo not drawn)	parasite growth, inhibitor, SYBR Green I	Cam3.1 R539T (MRA-1240)	–	2800 nM
COc1cc2c(c(OC)c1)C(C)=[N+](c1ccc(OC)c3c(OC)cc(C)cc13)[C@@H](C)C2	parasite growth, SYBR Green	W2	drug-resistant strain, blood stage	1870 nM
COCCN(C)CC(=O)NC(Cc1ccc(-c2ccccc2)cc1)B(O)O (stereo not drawn)	[3H]-hypoxanthine incorporation	Dd2, ELQ-300-resistant	–	116 ± 51 nM
Oc1ccc(-c2ccc(O)c3ccccc23)c2c1C=NCC2	parasite growth, SYBR Green	W2	drug-resistant strain, blood stage	2130 nM
C[C@@H]1CC[C@H]2[C@@H](C)C(=O)O[C@@H]3O[C@@]4(C)CC[C@@H]1[C@]32OO4	parasite growth	–	72 h, blood stage	5.92 nM
N[C@H]1C[C@@H](C(=O)O)CC1=C(F)F	parasite growth, SYBR Green	D6	blood stage	> 10 µg/mL
O[C@@H](CNCCNC(c1ccccc1)c1ccccc1)c1cc(Cl)cc2c1-c1ccc(Cl)cc1C2	parasite growth, SYBR Green	W2	48 h, drug-resistant strain, blood stage	2.6 nM
CC(=O)c1c(O)c(C)c(O)c2c1OC1=CC(=O)C(=C(C)NCCCCOC3OC4OC5(C)CCC6C(C)CCC(C3C)C46OO5)C(=O)C12C (mixture of isomers)	parasite growth, 3H-hypoxanthine incorporation	K1	asexual erythrocytic stages	0.008 µg/mL
O[C@]12C=C(c3nccc4c3[nH]c3ccccc34)[C@@H]3CCN(CCCC/C=C\CC1)C[C@@]31C[C@@H]3/C=C\CCCCN3[C@H]12	parasite LDH	D6, chloroquine-sensitive	72 h	0.0208 ± 0.00075 µg/mL
C[C@@H]1C(=O)O[C@@H](C)/C=C/C=C\[C@@H](C)[C@@H]2C=C[C@@H]3C[C@]4(C)O[C@@H]4[C@@H](C)[C@H]3[C@@H]2C(=O)C(Cl)(Cl)C1=O	parasite growth, ELISA	DD2	drug-resistant strain, blood stage	309 nM
C[C@H]1[C@@H](OCc2cn(-c3cc4ccc(O)cc4oc3=O)nn2)O[C@@H]2O[C@@]3(C)CC[C@H]4[C@H](C)CC[C@@H]1[C@@]24OO3	parasite growth	3D7	72 h, blood stage	0.8 nM
C[OH+][Cu-2]12[O]C(c3cn(-c4ccccc4)nc3-c3ccc(F)cc3)=N[N+]1=C(C)c1c(cc(C)oc1=O)[O]2 (stereo not drawn)	parasite growth, SYBR Green I fluorescence	3D7	72 h	36300 nM
CC1C=CC=CC(C)C2C=CC3CC(C)(Cl)C(O)C(C)C3C2C(=O)C(Cl)(Cl)C(=O)C(C)C(=O)O1 (stereo not drawn)	parasite growth, ELISA	DD2	drug-resistant strain, blood stage	310 nM

Structure (SMILES)	assay	system	conditions	IC50
CC1CCC(C(C)(C)C(=O)Nc2ccc(Oc3ccccc3)cc2)CC1 (stereo not drawn)	parasite growth, SYBR Green	FCR3	blood stage	26 nM
CC1C=CC=CC(C)C2C=CC3CC(C)(O)C(Br)C(C)C3C2C(=O)C(Cl)(Cl)C(=O)C(C)C(=O)O1 (stereo not drawn)	parasite growth, ELISA	DD2	drug-resistant strain, blood stage	64 nM
CC(=O)c1c(O)c(C)c(O)c2c1OC1=CC(=O)C(=C(C)NCCNc3ccnc4cc(Cl)ccc34)C(=O)C12C (stereo not drawn)	parasite growth, 3H-hypoxanthine incorporation	K1	asexual erythrocytic stages	0.167 µg/mL
C[OH+][Cu-2]12[O]C(c3cn(-c4ccccc4)nc3-c3ccccc3)=N[N+]1=C(C)c1c(cc(C)oc1=O)[O]2 (stereo not drawn)	parasite growth, SYBR Green I fluorescence	3D7	72 h	9960 nM
Cc1ccc2c(c1)C1CC(C)(N2)c2c(C)nc3ccc(C)cc3c21 (stereo not drawn)	parasite growth, inhibitor, SYBR Green I	Cam3.1 R539T (MRA-1240)	–	86 nM
CCN(CC)CCCC(C)Nc1ccnc2cc(Cl)ccc12 (stereo not drawn)	parasite growth	K1	72 h, drug-resistant strain, blood stage	87.7 nM
COc1ccc2cc1Oc1cc3c(cc1OC)CCN(C)C3Cc1ccc(cc1)Oc1c(O)c(OC)cc3c1C(C2)N(C)CC3 (stereo not drawn)	parasite growth, SYBR Green	–	blood stage	410 nM
O[Si](CCCN1CCCCC1)(c1ccc(F)cc1)C1CCCCC1 (stereo not drawn)	parasite growth, SYBR Green	FCB	–	22 nM
C[C@H]1[C@H](OC(=O)CCC(=O)OCc2nnn(-c3cc4ccc(O)cc4oc3=O)c2COC(=O)CCC(=O)O[C@@H]2O[C@@H]3O[C@@]4(C)CC[C@H]5[C@H](C)CC[C@@H]([C@H]2C)[C@@]35OO4)O[C@@H]2O[C@@]3(C)CC[C@H]4[C@H](C)CC[C@@H]1[C@@]24OO3	parasite growth	3D7	72 h, blood stage	5.3 nM
C[N+]1=C2C=C(NCCc3c[nH]c4ccccc34)C(=O)c3[nH]cc(c32)CC1	parasite growth, SYBR Green	3D7	blood stage	9.4 nM
C[C@H]1[C@@H](OCc2nnn(-c3cc4ccc(O)cc4oc3=O)c2CO[C@H]2O[C@@H]3O[C@@]4(C)CC[C@H]5[C@H](C)CC[C@@H]([C@H]2C)[C@@]35OO4)O[C@@H]2O[C@@]3(C)CC[C@H]4[C@H](C)CC[C@@H]1[C@@]24OO3	parasite growth	3D7	72 h, blood stage	0.7 nM
CN1CCCCC1C(=O)NC(Cc1ccc(-c2ccccc2)cc1)B(O)O (stereo not drawn)	ex vivo	Brazilian field isolates	median	18 nM
C[C@H]1[C@H](OC(=O)CCC(=O)OCc2cn(-c3cc4ccc(O)cc4oc3=O)nn2)O[C@@H]2O[C@@]3(C)CC[C@H]4[C@H](C)CC[C@@H]1[C@@]24OO3	parasite growth	3D7	24 h, blood stage	101 nM
C[OH+][Cu-2]12[O]C(c3cn(-c4ccccc4)nc3-c3ccc(Br)cc3)=N[N+]1=C(C)c1c(cc(C)oc1=O)[O]2 (stereo not drawn)	parasite growth, SYBR Green I fluorescence	3D7	72 h	25600 nM
O=C1C(NCCc2ccc(O)c(Br)c2)=CC2=NCCc3c[nH]c1c32	parasite growth, SYBR Green	3D7	blood stage	284 nM
COCCN(C)C(C)C(=O)NC(Cc1ccc(-c2ccccc2)cc1)B(O)O (stereo not drawn)	parasite growth	Cam3.II β5 A20S WLL-resistant	72 h	439 ± 47 nM
Cc1cc(C(c2ccc(Cl)cc2)c2ccc(Cl)cc2)c2nccc(C)c2c1	parasite growth, inhibitor, SYBR Green I	Cam3.1 R539T (MRA-1240)	–	5290 nM
Cc1cc(N2CCC(C#N)(C3(C)CC3)C2=O)cc(C(=O)NCc2cc(F)cc(-c3cnn(C)c3)c2)n1 (racemic)	parasite growth, [3H]hypoxanthine incorporation	Dd2 Pfcarl mutant	–	20 nM

A few entries again:
Structure (SMILES)	assay	system	conditions	IC50
CN1CCCCC1C(=O)NC(Cc1ccc(-c2ccccc2)cc1)B(O)O (stereo not drawn)	ex vivo	Brazilian field isolates	median	18 nM
C[C@H]1[C@H](OC(=O)CCC(=O)OCc2cn(-c3cc4ccc(O)cc4oc3=O)nn2)O[C@@H]2O[C@@]3(C)CC[C@H]4[C@H](C)CC[C@@H]1[C@@]24OO3	parasite growth	3D7	24 h, blood stage	101 nM
